Measurements of several laboratories.
Numbered parts are unrelated; each lists some results of a single study. Changes are numbered by the printed parent chain.

Set 1
Target: RING finger protein unkempt homolog, zinc fingers 1-6, GST-SBP tag (UNK, Homo sapiens, UniProt Q9C0B0, residues 30-357)
Chain of UniProt Q9C0B0 (30-357, looked up): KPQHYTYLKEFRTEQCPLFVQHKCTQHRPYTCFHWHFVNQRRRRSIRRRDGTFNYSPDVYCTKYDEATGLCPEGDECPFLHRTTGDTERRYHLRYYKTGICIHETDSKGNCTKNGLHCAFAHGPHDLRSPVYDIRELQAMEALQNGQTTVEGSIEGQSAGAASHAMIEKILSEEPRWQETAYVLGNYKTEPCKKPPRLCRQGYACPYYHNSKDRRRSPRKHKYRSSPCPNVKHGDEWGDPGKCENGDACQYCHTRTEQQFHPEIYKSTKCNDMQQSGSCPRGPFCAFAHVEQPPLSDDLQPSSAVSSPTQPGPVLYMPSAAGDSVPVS
Method: RNA Bind-n-Seq
Molecule type: RNA
Medium: in vitro
Tested at: not given
Notes: RNA with constant flanks, human and mouse sites, ends assumed
Baseline: input RNA pool
Reading: higher = stronger binding
All sequences stand within: GGGAGUUCUACAGUCCGACGAUC … CAACAGAGGAUUGAGCAUCA
The bound/input enrichment of `UAUUAACUGGGUGUUCUGACCACGAGGGACUCCUGGCAUCCACGAUUGUUCUGAUUCGCCAAUAGCCUUCUCUUGUCUACAGCUGCCAAUGCCAAGAGUCCCUAGCCUGCCUUCCUCACC` is reported as 0.309 ratio.
The bound/input enrichment of `CAGCUACUGAAAUGCCGGGACACACCUUCAUACAGUGAGGGACGGUCACUCCAGCAUUGGCGGGUUGCUCAUCUGUAUUGAGUGCUGCGUUGUGCUCGUGUUGGUUGGUUUGGUCAGGGA` is reported as 0.227 ratio.
With `GGGGUUCAGGGUGAGGAGAGCGCGGAGGGACUGUGUCCCAGUUGGUGGUGUGUGGGGUCUAUUAGUCUCAUCCAUGUCUGUUUGUCCUCAGCCCUGAGGUGCGCACCGAUAUCGAUAUUC` the bound/input enrichment was 0.216 ratio.
`AUCCUGAACGAGGAUAACUCUGUUGUUUUGGGUAUUUCAUCUCGGGAAGGAGAGGAGGUUAUGUUUAAAACUCCUGUGUCAAUUACUGAACAUCCCAAAAUCAAUGAGUGGCUCACAUUG` has a bound/input enrichment of 0.221 ratio.
The bound/input enrichment of `UCGUGCACAUGUGUUCCCCUAAAGGUUGGGGAGCCUCGCUGUGUCUUGCUGUUCCCAGGCACCACCACAGCAGGUGCUGCCAUACUCUUGUGGUCUCUGUGCGCCCCCCCCCCCCCCCCA` is reported as 0.253 ratio.
With `GCGAGAUCCGCUGCUGCUGAGGAGAGGAGCGUCAACAGCAGCACCAUGGUACAACAGAAGAACCUUGAAGGCUAUGUGGGAUUUGCCAAUCUCCCAAAUCAAGUAUACAGAAAAUCGGUG` the bound/input enrichment was 0.196 ratio.
The bound/input enrichment of `UGGGGGAGUUCUAAAAACAGGUGGUAUCUGUUUUUAAUUAUAAAAUAAUAAACAUUUACCAUAGAACAGUUACAAAGACAUGAAAAACACCUAAAACUCUACCACACACCUAGCCUUCCC` is reported as 0.904 ratio.

Set 2
Target: Interferon regulatory factor 3, full length, phosphomimetic (IRF3, Homo sapiens, UniProt Q14653, residues 1-427, S386D/S396D/S398D/S402D/T404D/S405D)
Method: protein-binding microarray
Molecule type: double-stranded DNA, one strand shown
Medium: in vitro
Tested at: 2540 nM top
Notes: 60-bp whole probe
Added: salmon DNA 0.4 mg/ml
Baseline: random background probes
Reading: higher = stronger binding
All sequences stand within: GCCTAGCAC … GTCTTGATTCGCTTGACGCTGCTG
Residues (chain): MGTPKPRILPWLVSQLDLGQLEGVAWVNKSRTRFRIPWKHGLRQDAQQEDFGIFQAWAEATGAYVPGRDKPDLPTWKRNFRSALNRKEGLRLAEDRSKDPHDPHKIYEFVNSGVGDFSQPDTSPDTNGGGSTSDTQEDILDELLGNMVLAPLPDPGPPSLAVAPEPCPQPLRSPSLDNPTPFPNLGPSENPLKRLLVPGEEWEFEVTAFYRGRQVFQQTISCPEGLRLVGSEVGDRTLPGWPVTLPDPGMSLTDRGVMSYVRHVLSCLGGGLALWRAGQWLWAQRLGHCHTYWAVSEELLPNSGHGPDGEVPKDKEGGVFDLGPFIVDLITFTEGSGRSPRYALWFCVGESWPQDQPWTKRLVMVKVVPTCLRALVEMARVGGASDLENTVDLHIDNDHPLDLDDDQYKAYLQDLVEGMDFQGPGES
Under “fitted relative affinity”, `GACGATCTCAGATTGGAGACGTGCTAG` is recorded as 0.602 z-score.
For `TTAGGACTGCTTCTCCTTGAGTGCTAG`, “fitted relative affinity” read -0.167 z-score.
`TCATCTTTGCAGATAAAACTGTGCTAG` — result for “fitted relative affinity”: 0.735 z-score.
Under “fitted relative affinity”, `TCAATTTTCAGAATTTAACTGTGCTAG` is recorded as 1.32 z-score.
`GACGATATTAGTCTCGAGACGTGCTAG` — result for “fitted relative affinity”: 0.35 z-score.
`TTAGATTTCAATATCGATTAGTGCTAG` — result for “fitted relative affinity”: 1.4 z-score.
Under “fitted relative affinity”, `ACACTTTCCCCTTCCTAGTTGTGCTAG` is recorded as 4 z-score.
`GACGGTATCGGTATCGGGACGTGCTAG` — result for “fitted relative affinity”: 4.86 z-score.
`ATCCATCTCAAGTAGCCTAGCGTGCTA`: “fitted relative affinity” 0.992 z-score.

Set 3
Target: Ras GTPase-activating protein-binding protein 1, full length (G3BP1, Homo sapiens, UniProt Q13283)
Chain of UniProt Q13283 (whole entry, looked up): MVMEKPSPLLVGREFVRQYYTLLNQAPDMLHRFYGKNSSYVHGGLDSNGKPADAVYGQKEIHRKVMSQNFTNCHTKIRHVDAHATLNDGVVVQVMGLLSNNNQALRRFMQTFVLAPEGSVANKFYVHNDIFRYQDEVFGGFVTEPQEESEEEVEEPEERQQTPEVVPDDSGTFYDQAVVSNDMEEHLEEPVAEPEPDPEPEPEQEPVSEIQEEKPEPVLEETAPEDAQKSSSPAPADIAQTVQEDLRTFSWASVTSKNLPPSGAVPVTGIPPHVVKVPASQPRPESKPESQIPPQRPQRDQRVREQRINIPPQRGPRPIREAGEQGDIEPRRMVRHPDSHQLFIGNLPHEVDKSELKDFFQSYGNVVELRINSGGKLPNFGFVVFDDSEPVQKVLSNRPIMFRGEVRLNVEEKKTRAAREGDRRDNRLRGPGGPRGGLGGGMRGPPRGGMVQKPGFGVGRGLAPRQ
Method: RNA Bind-n-Seq
Molecule type: RNA
Medium: in vitro
Tested at: 200 nM
Notes: whole 134-nt RNA, ends assumed
Added: 150 mM LiCl
Baseline: input library
Reading: higher = stronger binding
All molecules: 7-deaza-guanosine replaces G
All sequences stand within: GGGAGUUCUACAGUCCGACGAUC … UGGAAUUCUCGGGUGUCAAGG
`GUCCUGUGCUACACAUCGUAUGUACCGAAUCGGGAAAAAAAGGGAAAAAAAGGGAGGGAAAGUAUUAUGUUACGCCGUUCGGAUCUGCAC` has a log2 enrichment of 0.028.
`UCCUGUGCUACACAUCGUAUGUACCGAAUCGGGGAAAAAGGGAAAAAGGGGAAAAAGGGAAAGUAUUAUGUUACGCCGUUCGGAUCUGCA` gave a log2 enrichment of -0.191.
`CACAGACAACACGCACCCACACAUACACAGAGGGAAGGGGUUGGGAUGGGGACAGGGUGCACAGCAGGGCGGGGUAGGACCCCAGCCCCU` has a log2 enrichment of -0.366.
With `UGGCCCUGGUGGCAUGCGGGGAGGAAGAGGUGGCCUCAUGGAUCGUGGUGGUCCCGGUGUAAUGUUCAGAGGUGGCCGUGGUGGAGACAG` the log2 enrichment was -0.332.
With `CAAGUCCUGUGCUACACAUCGUAUGUACCGAAUCGGGUUUGGGGUUUGGGGUUUGGAAAGUAUUAUGUUACGCCGUUCGGAUCUGCACUU` the log2 enrichment was -1.25.
For `UGGCCCUGGUGGCAUGCGGGGAGAAAGAGGUGGCCUCAUGGAUCGUGGUGGUCCCGGUGGAAUGUUCAGAGGUGGCCGUGGUGGAGACAG`, the log2 enrichment was 0.405.

Set 4
Target: ABI1, truncated, D143A, DHFR fusion (Arabidopsis thaliana)
Method: DHFR PCA, deep sequencing
Medium: yeast
Notes: methotrexate growth selection, single substitutions
Added: (+)-ABA 0.0091 µM
Baseline: wild-type fitted maximum
Reading: higher = stronger binding
Starting sequence: PYL1, truncated, DHFR fusion (Arabidopsis thaliana); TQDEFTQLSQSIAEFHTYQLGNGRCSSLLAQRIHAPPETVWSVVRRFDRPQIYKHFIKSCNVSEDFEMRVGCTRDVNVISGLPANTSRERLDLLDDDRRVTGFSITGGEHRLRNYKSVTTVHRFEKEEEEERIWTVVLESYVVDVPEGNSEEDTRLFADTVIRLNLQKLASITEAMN; partner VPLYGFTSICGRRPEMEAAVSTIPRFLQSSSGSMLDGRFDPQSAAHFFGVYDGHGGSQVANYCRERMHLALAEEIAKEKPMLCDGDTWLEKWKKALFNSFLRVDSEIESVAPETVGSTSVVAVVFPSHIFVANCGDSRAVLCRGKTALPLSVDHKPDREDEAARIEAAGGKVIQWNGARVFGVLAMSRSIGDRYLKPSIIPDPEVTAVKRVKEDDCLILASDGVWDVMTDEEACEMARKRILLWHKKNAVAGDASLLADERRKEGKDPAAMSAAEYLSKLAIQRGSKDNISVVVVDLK
For `S9W`, “relative binding score” read 17.1%.
Under “relative binding score”, `A35E` is recorded as 3.11%.
`F124A`: “relative binding score” 6.23%.
`D48F`: “relative binding score” 6.52%.
`D96N` — result for “relative binding score”: 2.97%.
`Q167Y`: “relative binding score” -1.61%.
`I33D`: “relative binding score” -0.561%.
`L169K`: “relative binding score” -2.09%.
For `Y115L`, “relative binding score” read -0.353%.
`S117E`: “relative binding score” 4.85%.
`E147I`: “relative binding score” 10.3%.
`R69G` — result for “relative binding score”: 14.6%.

For quick reference, copied from above (set 4):
`F124A`: “relative binding score” 6.23%.
`D48F`: “relative binding score” 6.52%.
`D96N` — result for “relative binding score”: 2.97%.
